Measured values gathered from unrelated publications.
A part holds a random share of what one study measured. Changes are numbered by the printed parent chain.

Set 1
Target: ABI1, truncated, D143A, DHFR fusion (Arabidopsis thaliana)
Technique: DHFR PCA, deep sequencing
Medium: yeast
Setting: methotrexate growth selection, single substitutions
With: (+)-ABA 0.39 µM
Baseline: wild-type fitted maximum
Direction: higher = stronger binding
Parent: PYL1, truncated, DHFR fusion (Arabidopsis thaliana); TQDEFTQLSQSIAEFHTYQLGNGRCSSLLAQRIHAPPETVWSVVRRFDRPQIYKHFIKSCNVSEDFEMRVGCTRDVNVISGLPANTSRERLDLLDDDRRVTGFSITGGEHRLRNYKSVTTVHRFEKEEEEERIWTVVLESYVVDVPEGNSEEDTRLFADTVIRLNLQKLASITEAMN
`L112T` — result for “relative binding score”: -9.26%.
Under “relative binding score”, `Q51A` is recorded as -3.89%.
For `L82P`, “relative binding score” read -0.607%.
Under “relative binding score”, `P36G` is recorded as 0.537%.
For `E89M`, “relative binding score” read -4.51%.
`V142D` — result for “relative binding score”: 8.04%.
`N114M`: “relative binding score” 3.3%.
Under “relative binding score”, `A84I` is recorded as 25.1%.

Set 2
Target: Transcriptional repressor CTCF (CTCF, Homo sapiens, UniProt P49711, residues 1-727, full length assumed)
Technique: protein-binding microarray
Form: double-stranded DNA, one strand shown
Medium: in vitro
Tested at: not given
Setting: k-mer, scored over probes, only values ≥0.25
Direction: higher = stronger binding
Target sequence (chain): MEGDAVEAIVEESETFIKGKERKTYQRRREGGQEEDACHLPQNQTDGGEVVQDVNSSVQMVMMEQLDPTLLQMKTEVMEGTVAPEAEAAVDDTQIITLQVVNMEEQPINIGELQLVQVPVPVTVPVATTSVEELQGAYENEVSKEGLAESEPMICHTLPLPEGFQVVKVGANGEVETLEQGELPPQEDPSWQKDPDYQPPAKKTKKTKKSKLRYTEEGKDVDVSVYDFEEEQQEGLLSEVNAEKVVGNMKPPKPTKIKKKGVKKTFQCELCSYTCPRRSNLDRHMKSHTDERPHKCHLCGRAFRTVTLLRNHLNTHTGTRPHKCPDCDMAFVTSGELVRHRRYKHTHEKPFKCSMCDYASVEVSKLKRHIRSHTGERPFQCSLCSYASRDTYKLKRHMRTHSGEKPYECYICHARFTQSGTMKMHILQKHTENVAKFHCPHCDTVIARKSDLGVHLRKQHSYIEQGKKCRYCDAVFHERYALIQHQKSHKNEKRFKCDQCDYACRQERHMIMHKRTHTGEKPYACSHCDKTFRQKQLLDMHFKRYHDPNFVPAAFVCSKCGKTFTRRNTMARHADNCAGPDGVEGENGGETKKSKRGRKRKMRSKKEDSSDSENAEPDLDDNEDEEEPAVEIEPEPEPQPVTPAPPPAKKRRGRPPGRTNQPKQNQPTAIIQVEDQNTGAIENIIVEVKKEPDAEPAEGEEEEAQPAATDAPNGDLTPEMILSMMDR
`AACGTGCG` has an E-score of 0.254.
`ATTATGCG` gave an E-score of 0.403.
`ATTATCGC` has an E-score of 0.3.
With `AAACCATA` the E-score was 0.281.
The E-score of `CATAAAGA` is reported as 0.283.
`ATTTGTTA` gave an E-score of 0.271.
`ATATATTG` gave an E-score of 0.271.

Mixed results
With `EDLLKELQKQLEE` the binding score was -0.173 (Saccharomyces cerevisiae; peptide binding, yeast competitive growth sequencing; peptide, cyclin F-Cln2 fusion; concentration not given, Cln2 background subtracted; direction not given).
For `PhoQ, residues 284 288 289 292 302 303 SVHLDV`, the fold induction was 13.7 (PhoP, residues 12 14 15 18 19 VHSCL (Escherichia coli, UniProt P23836); Sort-seq, refers to: YFP reporter; E. coli; PhoQ-PhoP variant library, with: 10 µM Mg2+; baseline: high Mg2+ state, higher = stronger signaling).
With `MDASRQLMLNEEQ` the binding score was 1.45 (Saccharomyces cerevisiae; peptide binding, yeast competitive growth sequencing; peptide, cyclin F-Cln2 fusion; concentration not given, Cln2 background subtracted; direction not given).

For quick reference, copied from above (set 2):
`ATTATGCG` gave an E-score of 0.403.
`ATTATCGC` has an E-score of 0.3.
With `AAACCATA` the E-score was 0.281.
